Experimental data pooled from the literature.
“And” joins repeats or separate records; there may be more than shown. ± marks the error that the study gave.

CC(C)(O)c1ccccc1CC[C@H](c1cccc(/C=C/c2ccc3ccc(Cl)cc3n2)c1)[S+]([O-])CC1(CC(=O)O)CC1 (stereo partly shown) — percent metabolized (human liver microsomes; 1 µM, 30 min, 0.5 mg/mL protein): 18.5%
N=C(N)NCc1ccc(C(=O)NCCCC[C@H](NC(=O)N[C@@H](CCC(=O)O)C(=O)O)C(=O)O)cc1[211At] — tissue uptake (SCID mouse, PC-3 xenografts, lungs; 14 h): 1.02 ± 0.27 %ID/g
CC(C)[C@H](NC(=O)CNC(=O)[C@H](CCC(N)=O)NC(=O)[C@H](C)N)C(=O)O — unrelated adverse events (human; single dose, 3 mg/kg, unlikely related or unrelated): 33.3%
Cc1cc(O)c(C=O)c2c1C(=O)Oc1c(CO)c(O)c3c(c1O2)C(O)OC3=O (stereo not shown) — maximum non-toxic dose (male albino rats; oral, 14 days): ≤ 100 mg/kg
CC(CCC(=O)NCC(=O)O)C1CCC2C3CCC4CC(OC5OC(C(=O)O)C(O)C(O)C5O)CCC4(C)C3CC(O)C12C (stereo not shown) — plasma concentration (human, SLCO1B1 c.521 T/C, plasma; fasting, geometric mean, sex-adjusted): 106 ng/mL
O=c1cc(-c2ccccc2)oc2c(Br)c(O)c(O)c(O)c12 — MRT(0-t) (C57BL/6 mouse, plasma; oral, 150 mg/kg, single dose): 7.8 h
C[C@]12CC[C@H](O)CC1CCC1C2[C@H](O)C(=O)[C@]2(C)[C@@H](c3ccc(=O)oc3)CC[C@]12O (stereo partly shown) — CLint (sulfation, substrate; guinea pig liver cytosol; pH 7.4): 0.88 µL/min/mg
CC(C)[C@H](NC(=O)[C@H](Cc1c[nH]c2ccccc12)NC(=O)[C@H](Cc1ccccc1)NC(=O)[C@@H](NC(=O)[C@@H](NC(=O)[C@H](CCCCN)NC(=O)[C@@H](N)CCCCN)C(C)C)C(C)C)C(=O)N[C@@H](CCCCN)C(=O)N[C@@H](Cc1ccccc1)C(=O)N[C@@H](CCCCN)C(N)=O — cytokine level (ELISA, item: IL-13; mouse, blood; intravenous, 500 µg/kg, 5 days): 62 ± 4.31 pg/mL
CC(C)(C)c1ccc(COc2cc3c(=O)c(C(=O)NCCNCCO)cn(Cc4ccccc4)c3cc2Cl)cc1 — microsomal CLint (metabolic stability; male CD-1 mouse, liver microsomes; 1 µM): < 11.6 µL/min/mg
CSCC[C@H](NC(=O)CNC(=O)[C@H](CC(=O)O)NC(=O)[C@@H](NC(=O)[C@@H](NC(=O)[C@@H](NC(=O)CNC(=O)[C@H](CCC(N)=O)NC(=O)[C@H](CCSC)NC(=O)[C@H](CC(=O)O)NC(=O)[C@H](C)NC(=O)[C@H](C)NC(=O)[C@@H](NC(=O)[C@H](CO)NC(=O)[C@@H](N)CC(C)C)[C@@H](C)O)C(C)C)C(C)C)[C@@H](C)O)C(=O)N[C@@H](C)C(=O)N[C@@H](CO)C(=O)NCC(=O)N[C@@H](CC(C)C)C(=O)N[C@@H](CC(=O)O)C(=O)N[C@@H](CCCCN)C(=O)N[C@@H](CC(=O)O)C(=O)N[C@@H](Cc1ccc(O)cc1)C(=O)N[C@@H](CC(C)C)C(=O)N[C@@H](CCCCN)C(=O)N1CCC[C@H]1C(=O)N[C@@H](CC(=O)O)C(=O)N[C@@H](CC(=O)O)C(=O)O — clearance (human, serum; intravenous, 3.33 mg/kg, patients, infusion): 19.6 mL/min/kg
CCCC[C@H]1C(=O)N(C)[C@@H](CCCC)C(=O)N[C@@H](CCCNC(=O)CN2CCN(CC(=O)O)CCN(CC(=O)O)CCN(CC(=O)O)CC2)C(=O)N[C@H](C(=O)NCC(N)=O)CSCC(=O)N[C@@H](Cc2ccc(O)cc2)C(=O)N(C)[C@@H](C)C(=O)N[C@@H](CC(N)=O)C(=O)N2CCC[C@H]2C(=O)N[C@@H](Cc2c[nH]cn2)C(=O)N[C@@H](CC(C)C)C(=O)N(C)CC(=O)N[C@@H](Cc2c[nH]c3ccccc23)C(=O)N[C@@H](CO)C(=O)N[C@@H](Cc2c[nH]c3ccccc23)C(=O)N1C [gallium-68 labelled] — tumour to muscle ratio (static PET; NOD/SCID mice, CHO xenograft, CHO tumour, PD-L1-negative; intravenous, 1 h post injection): 3.49 ± 0.51
COc1cc(NC(=O)C(=O)c2c(C)n(Cc3ccc(Cl)cc3)c3ccc(C)cc23)ccn1 — t1/2 (cynomolgus monkey, female, plasma; oral, 10 mg/kg): 19.4 h and 30.3 h and 19.9 h and 19.7 h and 15.7 h
N#CC1(c2ccc3c(N)ncnn23)OC(COP(=O)(O)OP(=O)(O)OP(=O)(O)O)C(O)C1O (stereo not shown) — AUC(0-t) (LC-MS/MS; CD-1 mouse, kidney; oral, 100 mg/kg of remdesivir): 8710 nmol·h/kg
CSCC[C@@H]1NC(=O)[C@@H]2CSSC[C@H](NC(=O)[C@H](CO)NC(=O)[C@H](C)N)C(=O)N[C@@H](CCCNC(=N)N)C(=O)N[C@@H]([C@@H](C)O)C(=O)N3CCC[C@H]3C(=O)N[C@@H](CCCCN)C(=O)N[C@@H](CC(=O)O)C(=O)N[C@H]3CSSC[C@H](NC(=O)[C@H](CCCCN)NC(=O)[C@H](CCCNC(=N)N)NC(=O)[C@H](CC(N)=O)NC1=O)C(=O)N[C@@H](CCCCN)C(=O)N[C@H]1CSSC[C@H](NC(=O)[C@@H]4CCCN4C(=O)[C@H](CC(=O)O)NC(=O)[C@H](C)NC3=O)C(=O)N[C@@H](C)C(=O)N[C@@H](CCCCN)C(=O)N[C@@H](CCC(=O)O)C(=O)N[C@@H]([C@@H](C)O)C(=O)NCC(=O)N[C@@H](CSSC[C@@H](C(N)=O)NC(=O)[C@H](CCCNC(=N)N)NC(=O)[C@H](CC(N)=O)NC1=O)C(=O)N1CCC[C@H]1C(=O)N[C@@H](Cc1ccc(O)cc1)C(=O)NCC(=O)N[C@@H](CCCCN)C(=O)N2 — albumin/globulin ratio (DA rat, pristane-induced arthritis, serum; subcutaneous, 0.1 mg/kg every other day, end of 21-day trial): 2.74
CC(=O)OC1O[C@@H]2O[C@@]3(C)CC[C@H]4[C@H](C)CCC([C@H]1C)[C@@]24OO3 (stereo partly shown) — dead embryos (Tg(fli1:EGFP) zebrafish embryos; 75 µg/mL, up to 48 hpf): 3 count
CC(C)[C@H](NC(=O)CNC(=O)[C@@H]1CCCN1C(=O)[C@H](Cc1ccccc1)NC(=O)CNC(=O)[C@@H](NC(=O)CNC(=O)[C@@H]1CCCN1C(=O)[C@H](Cc1ccccc1)NC(=O)CNC(=O)[C@@H](NC(=O)CNC(=O)[C@@H]1CCCN1C(=O)[C@H](Cc1ccccc1)NC(=O)CNC(=O)[C@@H](NC(=O)CNC(=O)[C@@H]1CCCN1C(=O)[C@H](Cc1ccccc1)NC(=O)CNC(=O)[C@@H](NC(=O)CNC(=O)[C@@H]1CCCN1C(=O)[C@H](Cc1ccccc1)NC(=O)CN(CC(=O)N[C@@H](Cc1ccccc1)C(=O)N1CCC[C@H]1C(=O)NCC(=O)N[C@H](C(=O)NCC(=O)N[C@@H](Cc1ccccc1)C(=O)N1CCC[C@H]1C(=O)NCC(=O)N[C@H](C(=O)NCC(=O)N[C@@H](Cc1ccccc1)C(=O)N1CCC[C@H]1C(=O)NCC(=O)N[C@H](C(=O)NCC(=O)N[C@@H](Cc1ccccc1)C(=O)N1CCC[C@H]1C(=O)NCC(=O)N[C@H](C(=O)NCC(=O)N[C@@H](Cc1ccccc1)C(=O)N1CCC[C@H]1C(=O)NCC(=O)N[C@H](C(=O)NCC(N)=O)C(C)C)C(C)C)C(C)C)C(C)C)C(C)C)CC(=O)N[C@@H](Cc1ccccc1)C(=O)N1CCC[C@H]1C(=O)NCC(=O)N[C@H](C(=O)NCC(=O)N[C@@H](Cc1ccccc1)C(=O)N1CCC[C@H]1C(=O)NCC(=O)N[C@H](C(=O)NCC(=O)N[C@@H](Cc1ccccc1)C(=O)N1CCC[C@H]1C(=O)NCC(=O)N[C@H](C(=O)NCC(=O)N[C@@H](Cc1ccccc1)C(=O)N1CCC[C@H]1C(=O)NCC(=O)N[C@H](C(=O)NCC(=O)N[C@@H](Cc1ccccc1)C(=O)N1CCC[C@H]1C(=O)NCC(=O)N[C@H](C(=O)NCC(N)=O)C(C)C)C(C)C)C(C)C)C(C)C)C(C)C)C(C)C)C(C)C)C(C)C)C(C)C)C(=O)NCC(N)=O — water solubility (water; insoluble at this concentration): < 100 µg/mL

Repeated from above:
N#CC1(c2ccc3c(N)ncnn23)OC(COP(=O)(O)OP(=O)(O)OP(=O)(O)O)C(O)C1O (stereo not shown) — AUC(0-t) (LC-MS/MS; CD-1 mouse, kidney; oral, 100 mg/kg of remdesivir): 8710 nmol·h/kg
